Experimental data collected from several papers.
Each numbered part is a random draw from the data of one study; scales do not carry over between parts. Changes are numbered by the printed parent chain.

Sample 1
Target: ABI1, truncated, D143A, DHFR fusion (Arabidopsis thaliana)
Method: DHFR PCA, deep sequencing
Matrix: yeast
Setting: methotrexate growth selection, single substitutions
Together with: (+)-ABA 17 µM
Baseline: wild-type fitted maximum
Reading: higher = stronger binding
Starting sequence: PYL1, truncated, DHFR fusion (Arabidopsis thaliana); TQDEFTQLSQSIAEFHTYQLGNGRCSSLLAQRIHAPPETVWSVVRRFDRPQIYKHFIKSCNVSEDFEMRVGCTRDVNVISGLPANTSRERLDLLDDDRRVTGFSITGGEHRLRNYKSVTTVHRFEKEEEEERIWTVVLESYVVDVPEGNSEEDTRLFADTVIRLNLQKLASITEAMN; partner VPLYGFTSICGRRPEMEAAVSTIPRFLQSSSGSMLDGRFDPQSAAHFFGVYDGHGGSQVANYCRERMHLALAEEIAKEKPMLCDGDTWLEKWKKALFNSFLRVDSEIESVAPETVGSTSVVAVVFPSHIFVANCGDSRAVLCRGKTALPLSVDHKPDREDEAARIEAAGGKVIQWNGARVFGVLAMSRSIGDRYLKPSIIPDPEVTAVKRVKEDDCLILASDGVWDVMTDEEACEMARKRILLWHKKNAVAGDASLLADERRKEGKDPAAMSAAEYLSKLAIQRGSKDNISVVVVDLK
Substitution	relative binding score [%]
L93H	71.9
G23L	49.7
Q2I	86.8
D144F	-11.1
S140Y	-2.75
V118L	48.4
E89C	-14.2
E38F	20.6
S140R	0.0902
F157Q	-9.96
Q167S	87.2
I79W	80
R99N	59.6
E125V	94.2
R123Q	98.8
G107R	12.9
S9F	63.5
S11L	66.2
R32P	62.9

Sample 2
Target: CCNE1, cyclin fold, Cln2 fusion (human)
Method: yeast growth competition, sequencing
Matrix: yeast
Setting: weak parent motif
Baseline: not given
Reading: higher = stronger binding
Starting sequence: E2F7 docking peptide (human); SSAQRRLEIPSGG
Substitution	normalised enrichment score
SSAQKRLELPSGG [R5K I9L]	-0.00997
SSAQRRLEIPSAG [G12A]	-0.36
SSAQARAEIPSGG [R5A L7A]	0.168
SSAQRRLEIPSGA [G13A]	0.314
SSAQKRLEFPSGG [R5K I9F]	0.646
SSAQRRLEFPSGG [I9F]	2.07
SSAQRRAEIPSGG [L7A]	-0.0666
ASAQRRLEIPSGG [S1A]	0.368
SSAQRRLAIPSGG [E8A]	-0.383
SSAQRRLEAPSGG [I9A]	0.544

Sample 3
Target: Sal-like protein 4, full length isoform B (SALL4, Homo sapiens, UniProt Q9UJQ4-2, residues 1-616)
Method: universal PBM
Form: double-stranded DNA, one strand shown
Matrix: in vitro
Concentration: not given
Setting: 8-mer, flanks averaged, mean of replicates
Reading: higher = stronger binding
Residues (chain): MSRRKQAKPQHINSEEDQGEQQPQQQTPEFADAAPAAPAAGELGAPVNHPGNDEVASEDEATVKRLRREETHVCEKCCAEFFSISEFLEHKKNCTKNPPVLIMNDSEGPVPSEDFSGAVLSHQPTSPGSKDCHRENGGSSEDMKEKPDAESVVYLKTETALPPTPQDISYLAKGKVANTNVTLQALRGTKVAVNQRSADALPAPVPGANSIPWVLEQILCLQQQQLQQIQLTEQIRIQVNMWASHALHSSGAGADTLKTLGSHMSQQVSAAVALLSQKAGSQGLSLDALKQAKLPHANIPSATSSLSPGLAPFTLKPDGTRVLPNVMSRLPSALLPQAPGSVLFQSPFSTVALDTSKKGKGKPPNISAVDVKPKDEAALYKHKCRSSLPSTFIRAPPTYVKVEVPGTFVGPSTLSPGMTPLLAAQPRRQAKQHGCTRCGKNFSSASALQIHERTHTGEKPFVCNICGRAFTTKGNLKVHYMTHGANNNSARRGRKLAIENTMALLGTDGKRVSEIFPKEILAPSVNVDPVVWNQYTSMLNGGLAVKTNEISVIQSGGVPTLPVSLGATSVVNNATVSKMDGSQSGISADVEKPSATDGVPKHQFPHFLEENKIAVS
Sequence	E-score
GGGACTCA	-0.273
AACTCAGC	0.0353
CGCATTGA	-0.0257
GATCCCCC	-0.279
CTCGCATC	-0.132
AATAGGTA	0.321
ACGGTTGC	-0.202
ATACTACC	0.149
GAAATTAA	0.379
ATTGCCAG	0.00636
CCCAATAG	0.0548
CACTCTCG	-0.0477
CCTAGTTA	0.0894
CAATTGTC	0.0373
CAGTATAG	0.136
AAATAACC	0.168
CTATACCA	0.215
CGCTAGGA	-0.125
ACCACTTG	0.0167
AGTCCTGG	-0.314
CTAGAACC	-0.215
CTAAAGCC	0.0266
GGGTGAGA	-0.187
CCGAACAA	0.0522
ACCATCTA	0.0104

Sample 4
Target: RNA binding protein fox-1 homolog 2, RRM domain, GST-SBP tag (RBFOX2, Homo sapiens, UniProt O43251-10, residues 100-194)
Method: RNA Bind-n-Seq
Form: RNA
Matrix: in vitro
Concentration: 365 nM
Setting: natural RNA segment, single round, ends assumed
Baseline: no-protein control
Reading: higher = stronger binding
Constant ends, left off below: GGGAGUUCUACAGUCCGACGAUC … UGGAAUUCUCGGGUGCCAA
Residues (chain): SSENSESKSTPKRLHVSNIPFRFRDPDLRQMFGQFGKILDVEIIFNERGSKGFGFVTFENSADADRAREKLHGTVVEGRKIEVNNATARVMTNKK
Sequence	RBNS enrichment (R)
CCGGCCGCUCCACCAGCAUCACCUGCCUGUUAGGAGAAGCUGCAUCCAGAGGCAAACGGAGGCAAAGCUGGCUCACCUUCCGCACGCGGAUUAAUUUGCAUCUGAAAUAG	0.541
UCAUCUCUGUUUCUCUCAAGGCGUGUGCUUGGGCAGCUUGAGGUGAGGUUUUUCCUUCCCUGUGAAGAAAUACCAACCUUUGGACCCAAUAACAUUCAUAACUGGUAGAG	0.336
CGCCCUGACACCUGGCUGGCCAGCCGCGUGCCCUGCCCCACCUGCCGCGCACGCUUCUGCAUCCUGGAUGUGUGCACCGUGCGCUGAGUGGGCUGGGGCCUUGAGGUGAC	0.314
UAUGCAAGAGUAUUGAUGUAUGUGCUGAAUCUUCACAGACUUGUCAAUACACAGGCAGUAUUCUAAAAUAGCACUGAACAGGGAGUCAGGAGACUAUUGUCUCCUAAACC	0.273
CAGGGUUUCUCUGUGUAGCCCUGGCUGUCCUGGAACUCUGUAGACUGGGCUGGCCUCGAACUCAGAGAUCUGCCUGCCCUUGCUGGGAUCAGAGGUGUGCACCACCACUG	0.323
CCUUUCCUGGGGGAUGUGCACGGCAGCUUGAGCCUGUCACGUGGUCAAGGCCCGGCCCCAUCAGAGGCUGGGGGAGGCGGCACAUUGGCAGUGUGUCACACUGAGCUGGG	0.224
GACCAAGAAGAGAGGCUUGUUGGAAUCAAUUCUGCACAAUAGCCCAUGCUGUAAGCUCAUAGAAGUCACUGUAACUGUAGUGUGUCUGCUGUUACCUAGAGGGUCUCACC	0.347
AAGUAAAGCACCCUUUUGUAAUGCAAUUAAUUAUCCCUUAAUGUAUCUGUUUUGUAAGUCUGCAUUUUUGUAUAUCGGAUUUACCUUAAGCUUCUCUAGUGAGGCAUUCU	0.782
ACCGAAAAGAGUUUAACCAGCCCAACUGUGCCAUCCCUGCCUCCACUUCAGAGGGAUGGAGAAAGAAGUGGAGAAGGUCCUUAACCUGCAGUUUCUGCCUUUAAGCCAAA	0.55
AUUGCUUGAUACCAUGAAAGUGUAAAUACUGUAAUGCCUAAUCUAUUUAUCAAAACUGACUACUGGACCGGAGCCCAGAAACCAUGGGUCAAGUUACACGUGAAUUUGUU	0.496
AAGAAAUCCAGCCAAGUUCCUCUGUCCAAAUUUUUAAGUGCCCUUUGCAAGCUAAUCUAUUUGGCAAAAAAAUAGUCCCAGUUGUUCAACUAGCUCCCUUAAAACAUUCU	0.408
UUCUGAGUUCAAAACCCAUAGCCCUGAGUUUGAAACUCAAAGUUCCAAAUUCCAGGAAGGUGCAGAGAUGCCUCUGAGCCCCGAGGAAAAGAAUCCCUUGAGCAUCUCCC	0.386

Sample 5
Target: Centromere-binding protein 1, full length, N-terminal tag (CBF1, Saccharomyces cerevisiae, UniProt P17106, residues 1-351)
Chain of UniProt P17106 (whole entry, looked up): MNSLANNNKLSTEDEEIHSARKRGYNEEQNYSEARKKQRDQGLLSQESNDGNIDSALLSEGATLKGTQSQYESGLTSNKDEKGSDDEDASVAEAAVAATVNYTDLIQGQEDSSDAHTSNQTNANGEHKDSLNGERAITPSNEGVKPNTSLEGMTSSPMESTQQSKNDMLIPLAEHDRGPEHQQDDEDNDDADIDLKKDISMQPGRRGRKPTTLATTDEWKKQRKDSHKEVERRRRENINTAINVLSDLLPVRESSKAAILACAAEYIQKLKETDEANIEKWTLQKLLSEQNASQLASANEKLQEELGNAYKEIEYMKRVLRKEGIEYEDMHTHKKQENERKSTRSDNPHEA
Method: protein-binding microarray
Form: double-stranded DNA, one strand shown
Matrix: in vitro
Concentration: 0.8 µM
Setting: whole 60-bp probe, no competitor
Reading: higher = stronger binding
Constant ends, left off below: … GTCTTGATTCGCTTGACGCTGCTG
Sequence	fluorescence intensity
TGTACGAAGCTATAGCACGGTGTTATAGTAGTTAGG	528 a.u.
CTAAATGCATGCAGAAACATCACGAACAGAGTATTC	548 a.u.
CTAACGTGACAGGTTTGTATCACGTGCTTCTTATTC	20600 a.u.
GAATCTTTTGTACATCACGTTTCACTATATATTTAG	2400 a.u.
CTAGCCCGTGAGCGACTCATGACGCGCGTGTGCTTC	644 a.u.
GAAAAGAATACTTCAGACGTGATAAAAATTTACTAG	592 a.u.
GAAACAAGATCTCGCCGCGTGTATAGATATATATAG	573 a.u.
GAAGCATATTTGAGTATCGTGATCCCTTTTTTTTAG	1460 a.u.
CTAACTCCTTCGAAACACGTTCCAAAGAGTTATTTC	529 a.u.
CTAAGCTAAGAGAGTCACGGGACTAAAAGGTAATTC	5600 a.u.
CTAATATATCGCTAGCATGCGTGAGTTATGGATTTC	531 a.u.
CTAAAATTTTGTCACCTGTGCTTTGCTAGAGTTTTC	754 a.u.
TGTACGAAGCTATACGTGAATATTATAGTAGTTAGG	556 a.u.
GAATAGTTGCGGTAGAACGTGATGTTGATATAGTAG	1420 a.u.
GAATTCTGTTCATCGCATGTGCATATATATATATAG	2330 a.u.
GAAAGCCGATTTTATCACGTGAAAAACAAAAAATAG	10200 a.u.
TGTACGAAGCTATGAAACGTGGATATAGTAGTTAGG	518 a.u.
CTACTAAAATGTCCAGACATGATCTTAAGCGGATTC	508 a.u.
GAAAGCTACATTGTTCACCATATTATACTATATTAG	503 a.u.
GAAGTAAAAAAGGGTGTGGTGATGGTGAAGATGTAG	558 a.u.
GAATGCTCAACTCGTTTGATGTTACTTTCTTTGTAG	475 a.u.
GAACTCATACATAGCTAGGTGACATGTATACTGTAG	546 a.u.
GAAATCGTTCATCTCCTCGTGTTTTGGGGAGGATAG	580 a.u.
CTAAATGCACGTGATATGCACGTGGGAGCTGGGTTC	20600 a.u.
GAATCCCTGTTGATTAACGTGTTTATCCATTTCTAG	479 a.u.

Further values, each from its own experiment
Molecule	target	test	system	setting	how to read	measurement	result
PhoQ, residues 284 288 289 292 302 303 TLASMF	PhoP, residues 12 14 15 18 19 NQGLL (Escherichia coli, UniProt P23836)	Sort-seq, refers to: YFP reporter	E. coli	PhoQ-PhoP variant library, together with: 10 µM Mg2+	baseline: high Mg2+ state, higher = stronger signaling	fold induction	5.66

Some of these lines once more (sample 5):
Sequence	fluorescence intensity
GAATCTTTTGTACATCACGTTTCACTATATATTTAG	2400 a.u.
CTAGCCCGTGAGCGACTCATGACGCGCGTGTGCTTC	644 a.u.
GAAAAGAATACTTCAGACGTGATAAAAATTTACTAG	592 a.u.
GAAACAAGATCTCGCCGCGTGTATAGATATATATAG	573 a.u.
GAAGCATATTTGAGTATCGTGATCCCTTTTTTTTAG	1460 a.u.
CTAACTCCTTCGAAACACGTTCCAAAGAGTTATTTC	529 a.u.
CTAAGCTAAGAGAGTCACGGGACTAAAAGGTAATTC	5600 a.u.
CTAATATATCGCTAGCATGCGTGAGTTATGGATTTC	531 a.u.
CTAAAATTTTGTCACCTGTGCTTTGCTAGAGTTTTC	754 a.u.
TGTACGAAGCTATACGTGAATATTATAGTAGTTAGG	556 a.u.
GAATAGTTGCGGTAGAACGTGATGTTGATATAGTAG	1420 a.u.
GAATTCTGTTCATCGCATGTGCATATATATATATAG	2330 a.u.
GAAAGCCGATTTTATCACGTGAAAAACAAAAAATAG	10200 a.u.
TGTACGAAGCTATGAAACGTGGATATAGTAGTTAGG	518 a.u.
CTACTAAAATGTCCAGACATGATCTTAAGCGGATTC	508 a.u.
